Experimental data from different studies.
Every numbered part comes from another study and shows a few of its results, in no order. Changes are numbered by the printed parent chain.
UniProt O96017, sequence (whole entry, looked up): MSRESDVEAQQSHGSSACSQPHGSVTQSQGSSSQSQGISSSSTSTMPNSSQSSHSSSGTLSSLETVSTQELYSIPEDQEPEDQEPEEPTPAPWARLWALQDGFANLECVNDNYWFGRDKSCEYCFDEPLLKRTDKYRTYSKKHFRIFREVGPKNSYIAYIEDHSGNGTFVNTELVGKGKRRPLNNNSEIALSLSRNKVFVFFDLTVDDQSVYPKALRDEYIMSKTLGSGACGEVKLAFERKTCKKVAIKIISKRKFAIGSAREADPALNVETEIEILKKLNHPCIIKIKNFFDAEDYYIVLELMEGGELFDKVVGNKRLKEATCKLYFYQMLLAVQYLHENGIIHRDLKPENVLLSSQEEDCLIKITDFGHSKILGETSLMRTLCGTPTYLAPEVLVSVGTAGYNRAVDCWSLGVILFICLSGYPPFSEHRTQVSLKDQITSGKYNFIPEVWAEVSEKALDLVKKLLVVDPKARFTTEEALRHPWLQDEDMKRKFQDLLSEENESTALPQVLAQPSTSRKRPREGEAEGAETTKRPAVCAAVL
UniProt Q96D53, sequence (whole entry, looked up): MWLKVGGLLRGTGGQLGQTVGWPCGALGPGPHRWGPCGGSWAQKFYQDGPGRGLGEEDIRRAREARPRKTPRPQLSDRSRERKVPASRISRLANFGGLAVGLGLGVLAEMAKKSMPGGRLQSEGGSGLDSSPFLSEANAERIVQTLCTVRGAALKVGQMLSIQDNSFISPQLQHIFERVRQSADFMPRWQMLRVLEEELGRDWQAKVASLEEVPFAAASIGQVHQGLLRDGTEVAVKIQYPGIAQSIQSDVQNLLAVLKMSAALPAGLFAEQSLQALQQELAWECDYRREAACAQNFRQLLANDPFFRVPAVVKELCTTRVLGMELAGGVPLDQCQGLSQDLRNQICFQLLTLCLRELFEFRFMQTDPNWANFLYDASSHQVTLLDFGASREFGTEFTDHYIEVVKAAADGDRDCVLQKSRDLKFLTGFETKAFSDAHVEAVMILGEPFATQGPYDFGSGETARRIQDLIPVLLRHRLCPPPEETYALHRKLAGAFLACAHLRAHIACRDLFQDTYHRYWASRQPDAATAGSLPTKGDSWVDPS

Study 1
Target: Ras GTPase-activating protein-binding protein 1, RRM domain (G3BP1, Homo sapiens, UniProt Q13283)
UniProt Q13283, sequence (whole entry, looked up): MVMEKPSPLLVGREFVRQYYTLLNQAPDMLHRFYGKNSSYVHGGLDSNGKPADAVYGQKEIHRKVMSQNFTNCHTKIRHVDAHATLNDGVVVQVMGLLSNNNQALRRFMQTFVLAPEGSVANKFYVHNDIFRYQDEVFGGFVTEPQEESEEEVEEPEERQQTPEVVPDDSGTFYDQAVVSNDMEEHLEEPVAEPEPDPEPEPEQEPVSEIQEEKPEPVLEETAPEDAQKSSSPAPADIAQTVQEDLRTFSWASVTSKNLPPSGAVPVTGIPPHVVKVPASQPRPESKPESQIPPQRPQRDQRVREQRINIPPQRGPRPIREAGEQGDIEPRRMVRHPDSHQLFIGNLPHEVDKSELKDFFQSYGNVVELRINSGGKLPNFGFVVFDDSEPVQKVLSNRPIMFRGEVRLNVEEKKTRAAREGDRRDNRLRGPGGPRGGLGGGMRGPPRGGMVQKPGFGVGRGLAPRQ
Technique: RNA Bind-n-Seq
Form: RNA
Sample: in vitro
Concentration: 1 µM
Setting: whole 134-nt RNA, ends assumed
Together with: 150 mM KCl
Baseline: input library
Direction: higher = stronger binding
Quantity: log2 enrichment
Sequence = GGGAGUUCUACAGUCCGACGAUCCUGUGCUACACAUCGUAUGUACCGAAUCGGGGAAAAAAAGGGGUUUUUGGGGUUUUUGGGGAAAGUAUUAUGUUACGCCGUUCGGAUCUGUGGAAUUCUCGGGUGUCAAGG; value = 1.02
Sequence = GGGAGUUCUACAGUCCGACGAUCUGCCUCUGCGGCUAGCUGAUUUUGGGGUACUUCAUAGGAACGAGCUGUCUGGAGCACUCACAGGACUCACCCGGGUACGAAGAUUCCAACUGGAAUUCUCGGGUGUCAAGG; value = -0.536
Sequence = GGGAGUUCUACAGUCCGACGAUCUGGGAGGUGGAUUUUGUUUAUUUUUUUAGUUCAUUUCCAGGGGUGGGAAUUUUUUUUUAAUAUGUGUCAUGAAUAAAGUUGUUUUUGAAAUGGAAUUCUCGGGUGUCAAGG; value = 1.6
Sequence = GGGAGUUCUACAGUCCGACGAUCUCAAGUCCUGUGCUACACAUCGUAUGUACCGAAUCGGGAAGGGGAAGGGAAGGGGAAAGUAUUAUGUUACGCCGUUCGGAUCUGCACUUCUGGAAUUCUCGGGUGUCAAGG; value = 1.05
Sequence = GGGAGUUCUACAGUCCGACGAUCAAGUCCUGUGCUACACAUCGUAUGUACCGAAUCGGGAAAGGGAAAAAAAGGGAGGGAAAGUAUUAUGUUACGCCGUUCGGAUCUGCACUUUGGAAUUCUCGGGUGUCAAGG; value = 0.673
Sequence = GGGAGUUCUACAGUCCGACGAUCGUCCUGUGCUACACAUCGUAUGUACCGAAUCAAAUUUAAAUUUUUAAACCCCCCCAAAAAAGUAUUAUGUUACGCCGUUCGGAUCUGCACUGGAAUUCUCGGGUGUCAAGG; value = -0.92
Sequence = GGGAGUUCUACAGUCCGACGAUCCACAGACAACACGCACCCACACAGACACAGAGGGAAGGGGUUGGGAUGGGGACAGGGUGCACAGCAGGGCGGGGGAGGACCCCAGCCCCUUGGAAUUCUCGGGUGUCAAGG; value = 0.154
Sequence = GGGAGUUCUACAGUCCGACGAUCAGUCCUGUGCUACACAUCGUAUGUACCGAAUCAAACCCCCAAACCCCCAAAUUUAAAAAAGUAUUAUGUUACGCCGUUCGGAUCUGCACUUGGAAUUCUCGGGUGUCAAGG; value = -0.119

Study 2
Substitution: M176E
Target: ABI1, truncated, D143A, DHFR fusion (Arabidopsis thaliana)
Technique: DHFR PCA, deep sequencing
Sample: yeast
Setting: methotrexate growth selection, single substitutions
Baseline: wild-type fitted maximum
Direction: higher = stronger binding
Quantity: relative binding score
Starting sequence: PYL1, truncated, DHFR fusion (Arabidopsis thaliana); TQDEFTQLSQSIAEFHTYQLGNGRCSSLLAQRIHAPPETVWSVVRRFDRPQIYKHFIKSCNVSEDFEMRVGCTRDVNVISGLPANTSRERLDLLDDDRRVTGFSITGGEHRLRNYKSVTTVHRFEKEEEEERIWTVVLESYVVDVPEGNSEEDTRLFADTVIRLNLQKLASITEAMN; partner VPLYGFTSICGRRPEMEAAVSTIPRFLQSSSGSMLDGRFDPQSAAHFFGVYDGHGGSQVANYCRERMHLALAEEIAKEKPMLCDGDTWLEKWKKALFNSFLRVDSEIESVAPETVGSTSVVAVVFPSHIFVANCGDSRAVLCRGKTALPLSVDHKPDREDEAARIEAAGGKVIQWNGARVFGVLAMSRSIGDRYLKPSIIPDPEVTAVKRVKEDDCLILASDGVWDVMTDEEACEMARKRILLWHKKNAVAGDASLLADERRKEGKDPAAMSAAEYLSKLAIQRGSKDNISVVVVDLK
setting = together with: (+)-ABA 0.032 µM; value = 4.27%
setting = together with: (+)-ABA 0.11 µM; value = 9.78%
setting = together with: (+)-ABA 710 µM; value = 102%
setting = together with: (+)-ABA 1.4 µM; value = 35.2%
setting = together with: (+)-ABA 0.0091 µM; value = 0.645%
setting = together with: (+)-ABA 0.39 µM; value = 19%

Further values, each from its own experiment
SMILES = Cc1cncc2cccc(S(=O)(=O)N3CCCN(C(=O)CN)C[C@@H]3C)c12; target = Serine/threonine-protein kinase Chk2 (CHEK2, Homo sapiens, UniProt O96017); assay = enzyme activity, inhibitor; setting = 0.5 µM; scale = baseline: control; quantity = remaining activity; value = 96.2%
SMILES = CC(C)(O)c1cncc(-c2nc3ccc(F)cc3n2C2CC2)c1; target = Atypical kinase COQ8B, mitochondrial (COQ8B, Homo sapiens, UniProt Q96D53); assay = cell-free assay, competition with immobilised ligand; setting = 1 µM; quantity = remaining binding; value = 100%

Some of these lines once more (further values, each from its own experiment):
SMILES = CC(C)(O)c1cncc(-c2nc3ccc(F)cc3n2C2CC2)c1; target = Atypical kinase COQ8B, mitochondrial (COQ8B, Homo sapiens, UniProt Q96D53); assay = cell-free assay, competition with immobilised ligand; setting = 1 µM; quantity = remaining binding; value = 100%
SMILES = Cc1cncc2cccc(S(=O)(=O)N3CCCN(C(=O)CN)C[C@@H]3C)c12; target = Serine/threonine-protein kinase Chk2 (CHEK2, Homo sapiens, UniProt O96017); assay = enzyme activity, inhibitor; setting = 0.5 µM; scale = baseline: control; quantity = remaining activity; value = 96.2%
